Results collected from several papers.
Every numbered part comes from another study and shows a few of its results, in no order. Changes are numbered by the printed parent chain.

Study 1 — target: CCNB2, cyclin fold, Cln2 fusion (human); technique: yeast growth competition, sequencing; medium: yeast; notes: weak parent motif; reference: not given; reading: higher = stronger binding
Parent: E2F1 docking peptide (human); PPVKRRLDLETDH
| Substitution | normalised enrichment score |
| --- | --- |
| T11E | 0.564 |
| E10I | 0.895 |
| K4T | -0.554 |
| P1F | 1.16 |
| H13G | 0.422 |
| K4G | 0.198 |

Study 2 — technique: DHFR PCA, deep sequencing; medium: yeast; with: (+)-ABA 0.032 µM; reference: wild-type fitted maximum; reading: higher = stronger binding
Target: ABI1, truncated, D143A, DHFR fusion (Arabidopsis thaliana)
Notes: methotrexate growth selection, single substitutions
Parent: PYL1, truncated, DHFR fusion (Arabidopsis thaliana); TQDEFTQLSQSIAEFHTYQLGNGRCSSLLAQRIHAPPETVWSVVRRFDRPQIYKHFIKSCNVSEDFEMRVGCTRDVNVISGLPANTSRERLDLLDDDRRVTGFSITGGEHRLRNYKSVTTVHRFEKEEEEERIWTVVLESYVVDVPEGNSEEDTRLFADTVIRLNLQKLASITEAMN
| Substitution | relative binding score [%] |
| --- | --- |
| G102A | 5.63 |
| F124C | 15.6 |
| R88S | 7.89 |
| F47C | -1.65 |
| G23F | -0.181 |

Study 3 — technique: EMSA with sequencing; form: double-stranded DNA, one strand shown; medium: in vitro; concentration: 10 and 20 nM; reference: negative control set to 0; reading: higher = stronger binding
Target: Hepatocyte nuclear factor 3-alpha (Foxa1, Mus musculus, UniProt P35582, residues 1-468, full length assumed)
Notes: whole designed probe, mean of two concentrations, ends assumed
Residues (chain): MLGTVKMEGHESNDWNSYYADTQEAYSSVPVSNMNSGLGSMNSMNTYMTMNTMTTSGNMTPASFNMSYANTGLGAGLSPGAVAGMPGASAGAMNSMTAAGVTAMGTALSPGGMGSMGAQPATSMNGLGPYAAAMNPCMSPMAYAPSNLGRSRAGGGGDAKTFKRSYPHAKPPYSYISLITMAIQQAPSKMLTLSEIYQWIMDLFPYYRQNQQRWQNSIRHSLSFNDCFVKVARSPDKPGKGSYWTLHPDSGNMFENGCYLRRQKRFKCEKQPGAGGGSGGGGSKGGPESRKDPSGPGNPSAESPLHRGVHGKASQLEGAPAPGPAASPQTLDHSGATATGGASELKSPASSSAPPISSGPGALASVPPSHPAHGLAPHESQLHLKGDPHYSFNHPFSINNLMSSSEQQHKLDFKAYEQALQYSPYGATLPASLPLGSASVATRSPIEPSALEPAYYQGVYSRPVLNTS
| Strand | normalised bound fraction [ratio] |
| --- | --- |
| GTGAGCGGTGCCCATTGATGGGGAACAGCAAGGCTTTAAAAGTGAGGTCTTTCAGTTTAGATGCAAAAAGGGTGGTTCTGTTGAGTCAACCCAGCTAGTTTCGTAATTTTCACTACATAGTAAACACCTAGAATGAGGTAGCTGGAGTGCAAATCTAAATGGCTTGTGACAGTTAAGGAAGTACATAGGCAACAGTTACTGGTTTTCTTGATGCAGCTGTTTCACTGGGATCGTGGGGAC | -0.00798 |
| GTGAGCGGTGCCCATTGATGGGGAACATCTTCCCCCTCTTCCTTGCCCCACCAGCTCACCTTCCCGGGTCAAAGTAAACAAGTGTTTACTTTGAAGCCGGCATTCGTTAACCCTCTTCTGGCGCAAACTGCTGTTTGCTCTGGATCTAACATGGTCCTTTGGCGACGCCAGGCTCCGGGAGAGCAAAGCACCGTGTCAGGGCCATGATCCGGGGTGGCCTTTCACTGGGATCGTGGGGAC | 0.459 |
| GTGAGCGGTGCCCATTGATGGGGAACAGGGACACTCAGAGAGTGAGGGAAGAAGGCTCTGAAGATCTCACTACTGCAGAGCAAACAGCTCCATAGAGAGATCTTCCTCACCCCAGAGAATGTTTACTCTATTAAATGTTAGAAGAGCATGTGTAAATAGCAAGCTTATTTAGTTTTCAGTTCCACCTCCCTTGGAAAGGAAAAGTGATACAATCATCTTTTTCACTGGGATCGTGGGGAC | 0.377 |
| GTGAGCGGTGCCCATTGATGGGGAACTAGCTACATCCTCTCTCCCCACATCAAGGAAGTGGCACTTCAATCCCCACCCTTTGAGTGTGAACTGCACTTATGACACCTGAGGGAGGAAAAGTAAATACGGTGGATCAACCTGGCAAACACTTTCTGACTCATACAGTCAAGGTTAATATCCACATGATAAGACATGTCGATCGCATACACCCCTGATATGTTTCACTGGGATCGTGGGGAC | 0.382 |
| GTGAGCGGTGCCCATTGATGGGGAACATCTCGTAACAAATGGCTTCAGGGTGTTCAGCTGTTCTGCAGCTATGCTGAGGAATTCCTGCCTGTACAAAAGTCACAGTGCCAAGTCCTGTTTGTTTACATTTTACTAATAAACCTCTGCCTCTGTGCTTAGCCTGAGGGGCTGCAGAGCTCCACACCCAGGAGTGGGCCCTCTGGGGATGCTGGGGTTTGATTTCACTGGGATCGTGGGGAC | 0.48 |

Mixed results
| Substance | target | assay | test system | setting | how to read | quantity | value |
| --- | --- | --- | --- | --- | --- | --- | --- |
| PhoQ, residues 284 288 289 292 302 303 SCCLKL | PhoP, residues 12 14 15 18 19 DLLYY (Escherichia coli, UniProt P23836) | Sort-seq, refers to: YFP reporter | E. coli | PhoQ-PhoP variant library, with: 10 µM Mg2+ | reference: high Mg2+ state, higher = stronger signaling | fold induction | 1.39 |

Some of these lines once more (study 1):
| Substitution | normalised enrichment score |
| --- | --- |
| H13G | 0.422 |
